Assay results of several laboratories.
Protocols differ between the studies behind these lines. ± gives the spread as reported.

SMILES	target or system	test	test system	setting	how to read	endpoint	value
O=C(CNc1nc(Cl)nc(NNC(=O)c2ccc(Nc3nc(Nc4ccc(C(=O)NNc5nc(Cl)nc(NCC(=O)NO)n5)cc4)nc(Nc4ccc(C(=O)NNc5nc(Cl)nc(NCC(=O)NO)n5)cc4)n3)cc2)n1)NO	WI-38 cells	cell viability, MTT		72 h		maximum non-toxic concentration	15.6 nM
Fc1ccc2c(c1)c1nc3ccc(Br)cc3c-1cn2Cc1cn(Cc2ccc(C(F)(F)F)cc2)nn1	Giardia duodenalis				relative to: Caco-2 CC50 over Giardia IC50	selectivity index	6.7
[64Cu+2].c1cnc(CNCc2ccc(CN3CCCN4CCNCCCN(CC4)CC3)cc2)nc1	CXCR4		NOD/SCID mouse, U87 and U87-stb-CXCR4 xenografts, liver	iv, 450 min, ex vivo		tissue uptake	79.8 ± 7.16 %ID/g
Fc1ccc2c(c1)c1nc3ccc(Br)cc3c-1cn2Cc1cn(Cc2ccccc2)nn1	Giardia duodenalis				relative to: Caco-2 CC50 over Giardia IC50	selectivity index	11.7
Cn1c(=O)oc2ccc(-c3ccc(CC(C#N)NC(=O)C4CNCCCO4)c(F)c3)cc21 (centres unmarked)			human	oral, 40 mg once daily, TEAE, multiple ascending dose		ALT increased incidence	11.1%
[64Cu+2].c1ccc(CNCc2ccc(CN3CCCN4CCNCCCN(CC4)CC3)cc2)nc1	CXCR4		NOD/SCID mouse, U87 and U87-stb-CXCR4 xenografts	iv, 90 min, no blocking dose	relative to: U87 tumour over blood	tumour-to-tissue ratio	2.81 ± 1.05
COC(=O)COc1ccc(NC(=O)C2(c3ccc(Cl)c(Cl)c3)CC2)c(C)c1	U-937	LDH release		12.5 µM, 4 h	relative to: Triton X-100	cytotoxicity	-1%
CC(=O)N[C@H](C(=O)N[C@H](C(=O)N[C@@H](CCCNC(=N)N)C(=O)N1Cc2ccccc2C[C@H]1C(=O)N[C@@H](Cc1ccccc1)C(N)=O)C1CCCCC1)C(C)C	human PBMC	Bio-Plex multiplex, refers to: IL-17		250 µg/mL, 24 h		cytokine level	5.5 ± 4.7 pg/mL
Fc1ccc2c(c1)c1nc3ccc(Br)cc3c-1cn2Cc1cn(Cc2cccc(Cl)c2)nn1	Giardia duodenalis				relative to: Caco-2 CC50 over Giardia IC50	selectivity index	3.1
NS(=O)(=O)c1ccc(NC(=O)NN[C@@H]2O[C@H](CO)[C@@H](O)[C@H](O)[C@H]2O)cc1	rabbit erythrocytes			16 µg/mL, 3 h	relative to: complete lysis	hemolysis	0%
Fc1cccc(Cn2cc(Cn3cc4c5cc(Br)ccc5nc-4c4cc(F)ccc43)nn2)c1	Giardia duodenalis				relative to: Caco-2 CC50 over Giardia IC50	selectivity index	8
CC1(C)C2CC[C@]3(C)C(C(=O)C=C4[C@H]5C[C@@](C)(C(=O)O)CC[C@]5(C)CC[C@]43C)[C@@]2(C)CC[C@@H]1O[C@@H]1O[C@H](C(=O)O)[C@@H](O)[C@H](O)[C@H]1O[C@@H]1O[C@H](C(=O)O)[C@@H](O)[C@H](O)[C@H]1O (single isomer, unassigned)	Epstein-Barr virus		superinfected Raji cells		relative to: CC50 over EC50	therapeutic index	160
C#Cc1cccc(N(C(=O)CCl)C(C(=O)NC2CCCCC2)c2ccccn2)c1 (racemic)		HPLC-MS	DPBS	6 h, 37 °C		conversion to pyridinium salt	~85%
O=C(O)CCC(NP(=O)(O)OCCC[C@@H](NC(=O)CC[C@H](NC(=O)CCCCCNC(=O)c1ccc([18F])cc1)C(=O)O)C(=O)O)C(=O)O (some centres unmarked)	CWR22Rv1 tumour model		host not given, spleen	1 h, tumour-bearing		tracer uptake	0.819 %ID/g

For quick reference, copied from above:
SMILES	target or system	test	test system	setting	how to read	endpoint	value
Fc1cccc(Cn2cc(Cn3cc4c5cc(Br)ccc5nc-4c4cc(F)ccc43)nn2)c1	Giardia duodenalis				relative to: Caco-2 CC50 over Giardia IC50	selectivity index	8
